Published values collected from several papers.
Parts stem from different laboratories: compare values within a part only. Substitutions count along the parent as printed.

Sample 1
Target: CCNB1, cyclin fold, Cln2 fusion (human)
Technique: yeast growth competition, sequencing
Medium: yeast
Notes: weak parent motif
Relative to: not given
Direction: higher = stronger binding
Starting sequence: GMNC docking peptide (human); KNAKRNLSSEFAN
Variant	normalised enrichment score
KNAKRNLSSCFAN [E10C]	-0.147
KNAKRNKSSEFAN [L7K]	0.439
KNAKRNLSSEVAN [F11V]	0.281
KNAKRNLSDEFAN [S9D]	0.262
KAAKRNLSSEFAN [N2A]	0.0725
KNAKRALSSEFAN [N6A]	-0.126
KNAKRNLSSTFAN [E10T]	0.349

Sample 2
Target: Interferon regulatory factor 7, full length, phosphomimetic (IRF7, Homo sapiens, UniProt Q92985, residues 1-503, S101K/S471D/S472D/S475D/S476D/S477D/S483D/S484D/S487D)
Technique: protein-binding microarray
Molecule type: double-stranded DNA, one strand shown
Medium: in vitro
Concentration: 250 nM
Notes: 60-bp whole probe
With: salmon DNA 0.4 mg/ml
Relative to: random background probes
Direction: higher = stronger binding
Constant ends, left off below: GCCTAGCAC … GTGCTAGGTCTTGATTCGCTTGACGCTGCTG
Residues (chain): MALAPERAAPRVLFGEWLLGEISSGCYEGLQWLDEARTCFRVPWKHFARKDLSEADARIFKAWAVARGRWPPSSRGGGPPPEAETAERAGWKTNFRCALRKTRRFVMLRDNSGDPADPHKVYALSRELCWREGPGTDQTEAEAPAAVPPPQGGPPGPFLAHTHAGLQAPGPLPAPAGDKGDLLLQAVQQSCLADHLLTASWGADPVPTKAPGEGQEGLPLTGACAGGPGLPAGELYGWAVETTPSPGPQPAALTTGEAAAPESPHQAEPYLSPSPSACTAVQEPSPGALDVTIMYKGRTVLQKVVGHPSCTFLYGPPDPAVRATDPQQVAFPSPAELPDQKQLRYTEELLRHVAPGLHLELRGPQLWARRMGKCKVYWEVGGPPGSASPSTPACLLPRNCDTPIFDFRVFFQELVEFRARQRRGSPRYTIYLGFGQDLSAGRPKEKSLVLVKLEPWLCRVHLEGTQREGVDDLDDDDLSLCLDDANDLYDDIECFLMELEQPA
Oligonucleotide	log fluorescence [z-score]
GACGGACAGCTTATCCTGAC	-0.511
CTTAGCATGGGGAGGGAGCA	0.224
TCAAAACTCTTTATTTAACT	0.395
GACGGTTCCGGTTTCGGGAC	7.41
GACGAGATCAGTTTCGAGAC	4.34
TTAGATATCGGTATCGGTTA	1.44
GCCCCTTTCCTTTGCCTCTG	2.05
GCCGATATCAGTTTCGAGAC	3.92

Sample 3
Target: ABI1, truncated, D143A, DHFR fusion (Arabidopsis thaliana)
Technique: DHFR PCA, deep sequencing
Medium: yeast
Notes: methotrexate growth selection, single substitutions
With: (+)-ABA 0.39 µM
Relative to: wild-type fitted maximum
Direction: higher = stronger binding
Starting sequence: PYL1, truncated, DHFR fusion (Arabidopsis thaliana); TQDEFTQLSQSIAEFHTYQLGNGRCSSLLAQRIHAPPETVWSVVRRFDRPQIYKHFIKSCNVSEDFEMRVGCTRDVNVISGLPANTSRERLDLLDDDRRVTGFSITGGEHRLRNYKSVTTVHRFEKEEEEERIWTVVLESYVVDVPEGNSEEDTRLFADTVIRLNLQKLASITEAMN; partner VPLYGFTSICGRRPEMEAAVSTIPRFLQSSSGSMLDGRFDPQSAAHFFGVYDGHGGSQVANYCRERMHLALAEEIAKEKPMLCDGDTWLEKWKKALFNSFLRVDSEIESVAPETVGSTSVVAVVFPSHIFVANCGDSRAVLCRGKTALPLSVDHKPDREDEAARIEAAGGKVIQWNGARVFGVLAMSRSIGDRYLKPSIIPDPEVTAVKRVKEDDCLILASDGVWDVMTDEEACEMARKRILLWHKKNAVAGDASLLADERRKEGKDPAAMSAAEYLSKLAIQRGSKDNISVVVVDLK
Variant	relative binding score
P83S	19.8%
E128S	53.3%
F157S	4.56%
L94M	16.5%
F47W	-5.34%
F66M	13.7%

Other studies, line by line
Substance	target	assay	system	setting	how to read	endpoint	value
PhoQ, residues 284 288 289 292 302 303 SSTLLI	PhoP, residues 12 14 15 18 19 HLGGL (Escherichia coli, UniProt P23836)	Sort-seq, measured: YFP reporter	E. coli	PhoQ-PhoP variant library, with: 10 µM Mg2+	relative to: high Mg2+ state, higher = stronger signaling	fold induction	1.1

Excerpt of the above (sample 2):
Oligonucleotide	log fluorescence [z-score]
GACGGTTCCGGTTTCGGGAC	7.41
GACGAGATCAGTTTCGAGAC	4.34
